Measurements from different studies.
Values joined by “and” are separate records of one study, mostly repeats; a detail may differ. ± marks the error that the study gave.

CCOc1cc(-c2nnc3n2CCC3)ccc1Nc1ncc2cc(C)nc(NCC(C)(C)C)c2n1 — GI50 (CAL-51; cell growth; 72 h): 600 nM
CCc1c(-c2ccccc2)c(-c2ccccc2)nn1-c1ccccc1-c1cccc(OCC(=O)O)c1 — Hill slope (mouse bone marrow macrophages; osteoclast formation; with: M-CSF + sRANKL): -1.02
C=CCn1c(=O)c2cnc(Nc3ccc(N4CCN(C)CC4)cc3)nc2n1-c1ccc2c(n1)[C@@](O)(CC)CC2 — G2/M phase cells (NCI-H1048; flow cytometry; concentration not given): 45.1%
CC[C@]1(O)C[C@H]2CN(CCc3c([nH]c4ccccc34)[C@@](C(=O)OC)(c3cc4c(cc3OC)N(C=O)[C@H]3[C@@](O)(C(=O)OC)[C@H](OC(C)=O)[C@]5(CC)C=CCN6CC[C@]43[C@@H]65)C2)C1 — inhibition (BT-16; cell viability, MTT; 10 µM, 72 h): 86.7%
C=CC1=C(C)c2cc3[n-]c(cc4nc(cc5[n-]c(cc1n2)c(C)c5C=C)C(C)=C4CCC(=O)O)c(CCC(=O)O)c3C.[Zn+2] — fold change (SH-SY5Y; RNA-seq, measured: RFTN1 mRNA; 5 µM, 5 h; reference: untreated cells): 1.57
CC(=O)c1nn(-c2ccc(Cl)cc2)/c(=N/N=C(\C)c2ccc(NC(=O)c3ccc(C)cc3)cc2)s1 — toxicity (HepG2; 10 µM): 97.5%
CCN(CC)Cc1cc(Nc2ccnc3cc(Cl)ccc23)ccc1O — autophagy flux (N27 rat dopaminergic cells; dose not given, 36 h): inhibited
CCn1cc(-c2cc(Cn3ccoc3=N)cc3c2CCN([C@@H](C)c2cc(OC)ccn2)C3=O)c(C(F)(F)F)n1 — EC50 (NCI-H441; cell growth, inhibitor; 120 h): 351 nM
CC/C(=N\NC(=O)NCc1cccc(O)c1)c1ccc(O)c(C)c1O — TAZ protein level (SK-OV-3; Western blot; 2D culture; 5 µM, 1 h, unit not given; reference: β-actin): 1.43 ± 0.47
Cc1nn(-c2nc3c(F)cc(F)cc3s2)c(O)c1C(c1ccc(C(F)(F)F)cc1)c1c(C)nn(-c2nc3c(F)cc(F)cc3s2)c1O — inhibition (RAW-ISG; IFN luciferase reporter; 20 µM, with: HT-DNA): 99.9%
CC(C)(C)NC(=O)[C@@H]1C[C@@H]2CCCC[C@@H]2CN1C[C@@H](O)[C@H](Cc1ccccc1)NC(=O)[C@H](CC(N)=O)NC(=O)c1ccc2ccccc2n1 — maximal efficacy (ΔE-expressing cells; ΔE mislocalization, high-content imaging): 135%
Nc1cccc2c1C(=O)N(C1CCC(=O)NC1=O)C2=O (centres unmarked) — relative viability (bone marrow CD138+ myeloma cells; XTT; human; 0.2 µM; reference: untreated): 1
COc1cc2ncnc(Nc3ccc(Oc4ccccc4)cc3C)c2cc1OC.O=C(O)C(F)(F)F — fractional effect (MeWo (NF1 mutant); 3 µM, with: trametinib 0 nM): 0.171 and 0.222
CC(C)NCC(O)c1ccc(O)c(O)c1 (centres unmarked) — sarcomere length (mouse ventricular cardiomyocytes; dose not given, 0.219 s): 1.78 µm
COc1cccc2c1C(=O)c1c(O)c3c(c(O)c1C2=O)C[C@@](O)(C(C)=O)C[C@@H]3O[C@H]1C[C@H](N)[C@H](O)[C@H](C)O1 — inhibition (BT-16; cell viability, MTT; 10 µM, 72 h): 89.2%
[Cl-].[Cl-].[Os+2].c1cnc2c(c1)ccc1cccnc12.c1cnc2c(c1)ccc1cccnc12.c1cnc2c(c1)ccc1cccnc12 — phototherapeutic index (SK-MEL-28; red light, 1% O2 hypoxia; reference: dark EC50 over red EC50): 1
COc1cc2c(c(OC)c1OC)-c1ccc(OC)c(=O)cc1[C@@H](NC(C)=O)CC2 — inhibition (BT-16; cell viability, MTT; 10 µM, 72 h): 91.6%
Cn1cc(-c2ccc(-c3cncc(Cl)c3N3CCC4(CCNC4=O)CC3)cc2)cn1 — fold change in expression (COLO 205; microarray, measured: ASS1; concentration not given, 2 h, gene set ASSY; reference: untreated cells): 3.47
CCn1cc(-c2cc(Cn3ccnc3)cc3c2CCN([C@H](c2cc(OC)ccn2)C2CC2)C3=O)c(C(F)(F)F)n1 — EC50 (SH-10-TC; cell growth, inhibitor; 120 h): 16800 nM
Cn1cc(CNCC2CCN(c3ncc(C(=O)NO)cn3)CC2)c2ccccc21 — inhibition (BT-16; cell viability, MTT; 10 µM, 72 h): 91.9%

For quick reference, copied from above:
CCOc1cc(-c2nnc3n2CCC3)ccc1Nc1ncc2cc(C)nc(NCC(C)(C)C)c2n1 — GI50 (CAL-51; cell growth; 72 h): 600 nM
